Measured values collected from several papers.
Protocols differ between the studies behind these lines. ± gives the spread as reported.
Signal transducer and activator of transcription 2 SH2 domain: Signal transducer and activator of transcription 2, SH2 domain (Homo sapiens, UniProt P52630)
UniProt P00512, sequence (whole entry, unmodified, looked up): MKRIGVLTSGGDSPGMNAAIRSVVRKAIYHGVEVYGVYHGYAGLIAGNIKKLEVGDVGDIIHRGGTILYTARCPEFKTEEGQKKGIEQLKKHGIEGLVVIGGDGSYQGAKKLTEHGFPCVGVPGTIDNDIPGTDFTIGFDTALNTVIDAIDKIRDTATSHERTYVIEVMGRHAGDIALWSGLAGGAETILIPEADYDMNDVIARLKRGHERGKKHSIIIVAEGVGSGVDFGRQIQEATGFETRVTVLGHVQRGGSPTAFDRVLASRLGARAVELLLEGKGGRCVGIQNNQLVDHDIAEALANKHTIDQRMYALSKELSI
UniProt P52630, sequence (whole entry, looked up): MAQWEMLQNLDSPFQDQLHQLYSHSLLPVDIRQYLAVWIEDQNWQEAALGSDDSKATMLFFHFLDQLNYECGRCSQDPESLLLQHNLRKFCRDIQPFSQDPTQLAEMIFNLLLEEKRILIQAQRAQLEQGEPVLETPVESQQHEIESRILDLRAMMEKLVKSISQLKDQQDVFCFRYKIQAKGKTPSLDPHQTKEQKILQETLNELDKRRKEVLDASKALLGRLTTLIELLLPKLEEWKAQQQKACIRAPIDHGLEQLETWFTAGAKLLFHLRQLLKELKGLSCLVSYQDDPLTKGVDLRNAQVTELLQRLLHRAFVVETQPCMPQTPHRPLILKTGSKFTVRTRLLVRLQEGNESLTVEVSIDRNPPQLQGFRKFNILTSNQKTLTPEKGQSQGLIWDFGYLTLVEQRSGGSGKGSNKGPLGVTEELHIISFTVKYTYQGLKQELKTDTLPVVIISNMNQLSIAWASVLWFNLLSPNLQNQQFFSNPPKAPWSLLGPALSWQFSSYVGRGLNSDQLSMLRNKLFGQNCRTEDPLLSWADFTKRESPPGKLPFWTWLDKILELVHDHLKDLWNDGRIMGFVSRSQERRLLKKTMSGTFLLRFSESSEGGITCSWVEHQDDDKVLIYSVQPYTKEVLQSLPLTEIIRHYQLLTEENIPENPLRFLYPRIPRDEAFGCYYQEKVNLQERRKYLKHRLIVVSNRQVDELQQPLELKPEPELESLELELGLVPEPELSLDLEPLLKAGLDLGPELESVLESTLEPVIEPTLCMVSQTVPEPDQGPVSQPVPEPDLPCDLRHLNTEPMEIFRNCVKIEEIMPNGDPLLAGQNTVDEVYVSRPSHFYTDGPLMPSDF
UniProt P19793, sequence (whole entry, looked up): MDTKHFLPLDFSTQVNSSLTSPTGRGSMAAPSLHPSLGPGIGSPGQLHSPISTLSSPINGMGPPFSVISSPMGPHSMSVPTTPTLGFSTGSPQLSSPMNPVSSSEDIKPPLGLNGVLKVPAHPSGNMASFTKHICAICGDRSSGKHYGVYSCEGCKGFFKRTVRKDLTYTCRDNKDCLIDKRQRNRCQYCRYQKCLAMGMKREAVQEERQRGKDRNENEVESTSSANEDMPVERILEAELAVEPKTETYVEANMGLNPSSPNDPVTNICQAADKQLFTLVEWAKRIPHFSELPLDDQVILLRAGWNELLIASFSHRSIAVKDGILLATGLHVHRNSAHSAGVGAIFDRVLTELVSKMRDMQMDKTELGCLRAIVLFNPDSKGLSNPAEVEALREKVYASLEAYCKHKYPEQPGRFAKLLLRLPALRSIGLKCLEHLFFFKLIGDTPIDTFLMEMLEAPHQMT
UniProt P50750, sequence (whole entry, looked up): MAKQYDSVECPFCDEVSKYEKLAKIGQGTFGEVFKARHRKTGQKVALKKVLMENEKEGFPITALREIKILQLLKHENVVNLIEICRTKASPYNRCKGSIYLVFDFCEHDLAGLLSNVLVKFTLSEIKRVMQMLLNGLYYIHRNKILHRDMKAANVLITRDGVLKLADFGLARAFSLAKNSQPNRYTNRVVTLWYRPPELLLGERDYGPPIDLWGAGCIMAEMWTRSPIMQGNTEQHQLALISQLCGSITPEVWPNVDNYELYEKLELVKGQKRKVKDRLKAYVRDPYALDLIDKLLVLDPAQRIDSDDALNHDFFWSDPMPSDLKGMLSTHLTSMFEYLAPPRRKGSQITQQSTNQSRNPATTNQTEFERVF
UniProt Q92PC8, sequence (whole entry, looked up): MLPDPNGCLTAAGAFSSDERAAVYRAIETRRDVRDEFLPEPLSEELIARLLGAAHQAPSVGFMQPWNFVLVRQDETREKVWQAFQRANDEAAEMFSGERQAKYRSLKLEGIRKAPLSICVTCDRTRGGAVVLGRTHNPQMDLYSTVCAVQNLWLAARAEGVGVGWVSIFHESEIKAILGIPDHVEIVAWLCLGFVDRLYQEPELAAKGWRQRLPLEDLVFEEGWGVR
UniProt P09769, sequence (whole entry, looked up): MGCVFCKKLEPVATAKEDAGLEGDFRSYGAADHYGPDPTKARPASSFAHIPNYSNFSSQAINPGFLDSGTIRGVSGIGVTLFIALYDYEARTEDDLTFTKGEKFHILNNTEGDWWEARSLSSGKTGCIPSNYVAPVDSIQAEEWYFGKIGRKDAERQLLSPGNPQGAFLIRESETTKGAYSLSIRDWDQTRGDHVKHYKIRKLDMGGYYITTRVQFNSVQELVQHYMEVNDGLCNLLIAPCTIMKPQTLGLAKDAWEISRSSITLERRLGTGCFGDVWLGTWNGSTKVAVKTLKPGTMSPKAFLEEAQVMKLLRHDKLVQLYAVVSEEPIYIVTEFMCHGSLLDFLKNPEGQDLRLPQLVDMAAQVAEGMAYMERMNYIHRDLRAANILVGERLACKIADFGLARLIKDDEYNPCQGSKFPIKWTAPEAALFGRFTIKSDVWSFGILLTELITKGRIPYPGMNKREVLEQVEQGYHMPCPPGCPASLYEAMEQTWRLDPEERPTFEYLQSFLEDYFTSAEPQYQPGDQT
UniProt P08510, sequence (whole entry, unmodified, looked up): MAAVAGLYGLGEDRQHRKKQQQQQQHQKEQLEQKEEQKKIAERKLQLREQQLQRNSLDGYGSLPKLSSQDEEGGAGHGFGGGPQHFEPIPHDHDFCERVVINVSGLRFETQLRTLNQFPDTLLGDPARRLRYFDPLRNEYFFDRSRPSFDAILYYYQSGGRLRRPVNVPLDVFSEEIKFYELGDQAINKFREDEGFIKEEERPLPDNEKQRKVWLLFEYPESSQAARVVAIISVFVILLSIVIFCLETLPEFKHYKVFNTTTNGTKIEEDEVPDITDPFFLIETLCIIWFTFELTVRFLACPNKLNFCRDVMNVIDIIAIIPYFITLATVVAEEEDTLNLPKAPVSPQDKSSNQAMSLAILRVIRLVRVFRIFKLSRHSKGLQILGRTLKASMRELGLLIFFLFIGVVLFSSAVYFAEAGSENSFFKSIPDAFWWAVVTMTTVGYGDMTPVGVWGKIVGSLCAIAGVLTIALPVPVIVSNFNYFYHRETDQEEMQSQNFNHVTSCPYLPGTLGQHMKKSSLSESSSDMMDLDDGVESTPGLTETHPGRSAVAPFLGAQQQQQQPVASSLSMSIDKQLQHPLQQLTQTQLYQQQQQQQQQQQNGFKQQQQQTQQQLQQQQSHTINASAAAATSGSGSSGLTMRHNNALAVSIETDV
UniProt P46108, sequence (whole entry, looked up): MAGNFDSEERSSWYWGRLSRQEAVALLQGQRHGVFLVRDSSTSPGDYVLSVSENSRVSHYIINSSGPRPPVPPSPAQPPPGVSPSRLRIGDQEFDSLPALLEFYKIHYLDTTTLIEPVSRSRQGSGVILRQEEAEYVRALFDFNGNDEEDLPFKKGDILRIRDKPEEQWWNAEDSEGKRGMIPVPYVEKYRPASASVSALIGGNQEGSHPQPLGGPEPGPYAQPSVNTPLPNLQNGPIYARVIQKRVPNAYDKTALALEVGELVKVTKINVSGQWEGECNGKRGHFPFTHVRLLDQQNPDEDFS
UniProt P25123, sequence (whole entry, looked up): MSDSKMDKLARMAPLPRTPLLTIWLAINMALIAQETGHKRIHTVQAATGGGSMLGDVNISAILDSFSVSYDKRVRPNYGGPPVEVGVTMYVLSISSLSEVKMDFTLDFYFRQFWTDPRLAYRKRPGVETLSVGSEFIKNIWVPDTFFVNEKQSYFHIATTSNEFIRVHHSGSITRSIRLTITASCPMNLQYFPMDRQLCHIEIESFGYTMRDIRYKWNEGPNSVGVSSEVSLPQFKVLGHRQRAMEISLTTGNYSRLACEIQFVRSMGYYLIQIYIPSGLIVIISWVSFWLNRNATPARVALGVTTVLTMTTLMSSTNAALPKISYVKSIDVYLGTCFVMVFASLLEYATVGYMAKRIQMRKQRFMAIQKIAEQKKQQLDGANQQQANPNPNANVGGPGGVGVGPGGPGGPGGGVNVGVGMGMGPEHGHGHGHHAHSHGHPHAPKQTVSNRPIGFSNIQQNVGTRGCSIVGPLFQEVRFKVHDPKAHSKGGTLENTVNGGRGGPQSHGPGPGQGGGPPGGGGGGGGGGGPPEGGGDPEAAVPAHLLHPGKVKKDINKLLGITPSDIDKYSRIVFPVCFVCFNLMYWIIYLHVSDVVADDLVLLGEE

| SMILES | target | assay | test system | setting | Kd [µM] |
| --- | --- | --- | --- | --- | --- |
| CC(C)(C)[C@]1(O)CC2OC(=O)CC23C(=O)OC2OC(=O)[C@H](O)C231 (stereo partly drawn) | Rdl (Drosophila melanogaster, UniProt P25123) | – | Drosophila | – | 0.136 |
| CC[C@H](C)[C@H](NC(=O)[C@H](Cc1ccc(OP(=O)(O)O)cc1)NC(=O)[C@H](CCC(=O)O)NC(=O)[C@H](Cc1c[nH]cn1)NC(=O)CNC(=O)[C@H](CC(=O)O)NC(=O)[C@H](CO)NC(=O)[C@H](CO)NC(=O)[C@@H](NC(=O)[C@H](CO)NC(=O)[C@H](CCC(=O)O)NC(=O)c1ccc2c(c1)C(=O)OC21c2ccc(N(C)C)cc2Oc2cc(N(C)C)ccc21)C(C)C)C(=O)N[C@@H](Cc1ccc(O)cc1)C(=O)N[C@H](C(=O)N[C@@H](CC(=O)O)C(=O)N1CCC[C@H]1C(=O)N[C@@H](CCSC)C(=O)N[C@@H](CCC(N)=O)C(=O)N[C@@H](CC(=O)O)C(=O)O)C(C)C | Adapter molecule crk, SH2 domain (Homo sapiens, UniProt P46108) | binding | – | – | 1.91 |
| C[N+](C)(C)[C@@H](Cc1c[nH]c(=S)[nH]1)C(=O)[O-] | egtUBC (Streptococcus pneumoniae, UniProt A0A0H2ZQB9, T274G) | binding | – | – | 0.0435 |
| Cc1cc2nc3c(=O)[nH]c(=O)nc-3n(C[C@H](O)[C@H](O)[C@H](O)COP(=O)(O)O)c2cc1C | 5,6-dimethylbenzimidazole synthase (bluB, Rhizobium meliloti, UniProt Q92PC8) | binding | Sinorhizobium meliloti | – | 23 ± 4 |
| CC[C@H](C)[C@H](NC(=O)[C@H](CCCNC(=N)N)NC(=O)CNC(=O)[C@H](Cc1c[nH]c2ccccc12)NC(=O)[C@@H]1CSC[C@@H](NC(=O)[C@H](Cc2ccc(O)cc2)NC(=O)[C@H](Cc2c[nH]c3ccccc23)NC(=O)[C@H](CC(C)C)NC(=O)CNC(=O)[C@H](CCCNC(=N)N)NC(=O)c2ccc3c(c2)C(=O)OC32c3ccc(O)cc3Oc3cc(O)ccc32)C(=O)N[C@@H](CC(C)C)C(=O)N[C@@H](CO)C(=O)N1)C(=O)NCC(=O)N[C@@H](CCCNC(=N)N)C(=O)N[C@@H](CCCNC(=N)N)C(=O)NCCCOCCOCCOCCCNC(=O)CCC(=O)NCCCOCCOCCOCCCNC(=O)CCC(=O)NCCCOCCOCCOCCCNC(=O)CCC(=O)N[C@@H](C)C(=O)O | srtA (Staphylococcus aureus, UniProt Q2FV99) | binding, fluorescence polarization | – | pH 7.5 | 2.98 ± 0.24 |
| CCCCc1cc2c(cc1C(=C1CC1)c1ccc(C(=O)O)cc1)C(C)(C)CCC2(C)C | RXRA (Homo sapiens, UniProt P19793) | binding, tryptophan fluorescence titration | – | – | 0.015 |
| CC[C@H](C)[C@@H]1NC(=O)[C@H]([C@@H](C)O)NC(=O)[C@@H]2CCCN2C(=O)[C@H](CC(C)C)NC(=O)[C@H](Cc2ccc(O)cc2)NC(=O)CSC[C@@H](C(N)=O)NC(=O)[C@H](CC(C)C)NC(=O)[C@@H]2CCCN2C(=O)[C@H](Cc2c[nH]cn2)NC(=O)[C@H](Cc2c[nH]c3ccccc23)NC(=O)[C@H](CC(C)C)NC(=O)[C@H](Cc2c[nH]cn2)NC(=O)CNC(=O)[C@H](C(C)C)NC(=O)CNC(=O)[C@H]([C@@H](C)O)NC1=O | VPS35/VPS29 (Homo sapiens, UniProt Q96QK1+Q9UBQ0) | binding, ITC | – | 25 °C, heterodimer | 0.763 ± 0.012 |
| CC[C@H](C)[C@H](NC(=O)[C@H](CCC(N)=O)NC(=O)[C@H](CCCNC(=N)N)NC(=O)[C@H](CC(=O)O)NC(=O)[C@H](CCC(=O)O)NC(=O)[C@H](CC(=O)O)NC(=O)[C@H](CO)NC(=O)[C@H](Cc1ccc(O)cc1)NC(=O)[C@H](CCC(=O)O)NC(=O)[C@H](CCCNC(=N)N)NC(=O)[C@H](CC(=O)O)NC(=O)[C@@H]1CCCN1C(=O)[C@H](Cc1ccc(O)cc1)NC(=O)[C@H](CO)NC(=O)[C@@H]1CCCN1C(=O)[C@H](CO)NC(=O)[C@@H](N)CCC(N)=O)C(=O)N[C@@H](CCCCN)C(=O)N[C@@H](CCC(N)=O)C(=O)N[C@@H](CCSC)C(=O)N[C@@H](CC(C)C)C(=O)N[C@@H](Cc1c[nH]cn1)C(=O)N[C@@H](CCC(N)=O)C(=O)N[C@@H](CCC(=O)O)C(=O)N[C@@H](CS)C(=O)N1CCC[C@H]1C(=O)N[C@@H](CCCNC(=N)N)C(=O)N[C@@H](CC(C)C)C(N)=O | chicken IgY | binding, SPR | – | – | 0.0041 ± 0.0002 |
| C=C(OP(=O)(O)O)C(=O)O | pfkA (Geobacillus stearothermophilus, UniProt P00512, H160A) | – | – | – | 1 ± 0.1 |
| CSCC[C@H](N)C(=O)N[C@@H](C)C(=O)N[C@@H](C)C(=O)N[C@H](C(=O)N[C@@H](C)C(=O)NCC(=O)N[C@@H](CC(C)C)C(=O)N[C@@H](Cc1ccc(O)cc1)C(=O)NCC(=O)N[C@@H](CC(C)C)C(=O)NCC(=O)N[C@@H](CCC(=O)O)C(=O)N[C@@H](CC(=O)O)C(=O)N[C@@H](CCCNC(=N)N)C(=O)N[C@@H](CCC(N)=O)C(=O)N[C@@H](Cc1c[nH]cn1)C(=O)N[C@@H](CCCNC(=N)N)C(=O)N[C@@H](CCCCN)C(=O)N[C@@H](CCCCN)C(=O)N[C@@H](CCC(N)=O)C(N)=O)C(C)C | Sh, DEL6-46 (Drosophila melanogaster, UniProt P08510) | ion current, blocker, inside-out patch clamp | – | +30 mV | 4.6 |
| CC[C@H](CO)Nc1nc(NCc2ccc(-c3ccccn3)cc2)c2ncn(C(C)C)c2n1 | Cyclin-dependent kinase 9, with cyclin T1 (CDK9, Homo sapiens, UniProt P50750) | affinity chromatography competition | SH-SY5Y cell extract | – | 0.378 |
| CC[C@H](C)[C@H](NC(=O)[C@H](CC(=O)O)NC(=O)[C@H](C)NC(=O)[C@H](Cc1ccc(OP(=O)(O)O)cc1)NC(=O)[C@H](CCCCN)NC(=O)[C@@H](NC(=O)[C@H](CC(=O)O)NC(=O)CNC(=O)[C@H](CCCCN)NC(=O)[C@H](CCSC)NC(=O)[C@H](CC(=O)O)NC(=O)[C@H](CC(C)C)NC(=O)[C@H](CCSC)NC(=O)c1ccc2c(c1)C(=O)OC21c2ccc(N(C)C)cc2Oc2cc(N(C)C)ccc21)C(C)C)C(=O)N[C@@H](CCC(=O)O)C(=O)N[C@@H](CO)C(=O)N[C@@H](CO)C(=O)N[C@@H](CC(N)=O)C(=O)N[C@@H](CC(=O)O)C(=O)O | Tyrosine-protein kinase Fgr, SH2 domain (FGR, Homo sapiens, UniProt P09769) | binding | – | – | 0.285 |
| CO[C@@H]1[C@@H](OC(N)=O)[C@@H](O)[C@H](Oc2ccc3c(O)c(NC(=O)c4ccc(O)c(CC=C(C)C)c4)c(=O)oc3c2C)OC1(C)C | TetR-family regulator NalD (Pseudomonas aeruginosa, UniProt Q9HY46) | binding, surface plasmon resonance | – | – | ~3.55 |
| CC[C@H](C)[C@H](NC(=O)[C@H](Cc1ccc(OP(=O)(O)O)cc1)NC(=O)[C@H](CCC(=O)O)NC(=O)[C@@H]1CCCN1C(=O)[C@@H](NC(=O)[C@@H]1CCCN1C(=O)[C@H](CC(C)C)NC(=O)[C@H](Cc1ccccc1)NC(=O)[C@@H](NC(=O)[C@H](CC(=O)O)NC(=O)[C@H](CC(=O)O)NC(=O)c1ccc2c(c1)C(=O)OC21c2ccc(N(C)C)cc2Oc2cc(N(C)C)ccc21)[C@@H](C)O)C(C)C)C(=O)N[C@@H](CC(N)=O)C(=O)N[C@@H](CCC(N)=O)C(=O)N[C@@H](CO)C(=O)N[C@H](C(=O)N1CCC[C@H]1C(=O)N[C@@H](CCCCN)C(=O)N[C@@H](CC(=O)O)C(=O)O)C(C)C | Signal transducer and activator of transcription 2 SH2 domain | binding | – | – | 1.63 |
| Nc1nc2c(ncn2[C@@H]2O[C@H](COP(=O)(O)OP(=O)(O)OP(=O)(O)O)[C@@H](O)[C@H]2O)c(=O)[nH]1 | GTP 3',8-cyclase (moaA, Staphylococcus aureus, UniProt P69848) | binding, isothermal titration calorimetry | – | – | 3.54 ± 0.81 |
| CSCC[C@H](NC(=O)[C@H](Cc1ccc(OP(=O)(O)O)cc1)NC(=O)CNC(=O)CNC(=O)[C@H](CC(=O)O)NC(=O)[C@H](CO)NC(=O)[C@H](CCC(=O)O)NC(=O)CNC(=O)[C@@H](NC(=O)[C@H](CC(C)C)NC(=O)[C@H](CO)NC(=O)c1ccc2c(c1)C(=O)OC21c2ccc(N(C)C)cc2Oc2cc(N(C)C)ccc21)[C@@H](C)O)C(=O)N[C@@H](CC(=O)O)C(=O)N[C@@H](CCSC)C(=O)N[C@@H](CO)C(=O)N[C@@H](CCCCN)C(=O)N[C@@H](CC(=O)O)C(=O)N[C@@H](CCC(=O)O)C(=O)N[C@@H](CC(=O)O)C(=O)O | Signal transducer and activator of transcription 2 SH2 domain | binding | – | – | 1.34 |
| O=C(CO)[C@@H](O)[C@H](O)[C@H](O)COP(=O)(O)O | pfkA (Geobacillus stearothermophilus, UniProt P00512) | – | – | – | 30 ± 2 |
| CSCC[C@H](NC(=O)[C@@H]1CCCN1)C(=O)N[C@@H](C)C(=O)N[C@@H](CO)C(=O)N[C@@H](CC(=O)O)C(=O)N1CCC[C@H]1C(=O)N[C@@H](CC(C)C)C(=O)NCC(=O)N[C@H](C(=O)N[C@H](C(=O)N[C@@H](CCCNC(=N)N)C(=O)N1CCC[C@H]1C(=O)N[C@@H](CCCNC(=N)N)C(=O)N[C@@H](C)C(=O)N[C@@H](CCCNC(=N)N)C(=O)N[C@@H](C)C(N)=O)C(C)C)C(C)C | Klotho (Kl, Mus musculus, UniProt O35082) | competitive BLI | mouse | 30 °C | > 5 |

For quick reference, copied from above:
| SMILES | target | assay | test system | setting | Kd [µM] |
| --- | --- | --- | --- | --- | --- |
| C=C(OP(=O)(O)O)C(=O)O | pfkA (Geobacillus stearothermophilus, UniProt P00512, H160A) | – | – | – | 1 ± 0.1 |
